Experimental data of several laboratories.
Every numbered part comes from another study and shows a few of its results, in no order. Substitutions count along the parent as printed.
Chain of UniProt P63146 (whole entry, looked up): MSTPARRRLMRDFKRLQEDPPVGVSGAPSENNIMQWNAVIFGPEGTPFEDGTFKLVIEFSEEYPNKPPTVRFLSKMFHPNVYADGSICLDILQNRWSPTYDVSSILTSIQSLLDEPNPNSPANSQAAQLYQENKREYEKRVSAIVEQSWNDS
Chain of UniProt Q8N2K1 (whole entry, looked up): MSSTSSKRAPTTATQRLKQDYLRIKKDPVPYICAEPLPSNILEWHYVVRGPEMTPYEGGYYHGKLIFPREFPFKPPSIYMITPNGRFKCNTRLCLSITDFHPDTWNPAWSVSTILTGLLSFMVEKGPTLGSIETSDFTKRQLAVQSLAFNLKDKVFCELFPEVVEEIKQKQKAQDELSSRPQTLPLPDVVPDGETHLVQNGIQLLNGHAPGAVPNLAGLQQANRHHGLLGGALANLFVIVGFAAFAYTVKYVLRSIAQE
Chain of UniProt O00762 (whole entry, looked up): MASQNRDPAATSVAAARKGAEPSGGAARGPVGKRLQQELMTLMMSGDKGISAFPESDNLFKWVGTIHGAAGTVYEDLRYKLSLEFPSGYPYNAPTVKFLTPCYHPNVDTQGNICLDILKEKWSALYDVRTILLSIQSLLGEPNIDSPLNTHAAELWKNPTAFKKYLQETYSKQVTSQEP
Chain of UniProt P62253 (whole entry, looked up): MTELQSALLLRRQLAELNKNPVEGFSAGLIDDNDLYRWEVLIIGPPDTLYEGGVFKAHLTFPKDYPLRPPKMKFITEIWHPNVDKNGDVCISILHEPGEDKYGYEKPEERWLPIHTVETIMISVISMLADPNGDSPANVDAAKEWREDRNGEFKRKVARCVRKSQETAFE

Sample 1
Target: Prothrombin, mature alpha-thrombin (F2, Homo sapiens, UniProt P00734)
Method: aptamer microarray, sandwich
Form: DNA with 2'F-ANA
Medium: in vitro
Concentration: 200 nM
Notes: whole 15-mer aptamer, many near background
With: Cy3 exosite-II aptamer, 400 nM
Direction: higher = stronger binding
Oligonucleotide: GGTTGGTGTGGTTGG
Modification | mean fluorescence intensity [a.u.]
2'F-ANA at 2 3 4 6 7 8 11 14 | 260
2'F-ANA at 1 3 4 5 6 8 12 14 | 49.4
2'F-ANA at 2 4 7 8 10 14 | 68.4
2'F-ANA at 1 5 6 7 9 10 11 14 | 46.6
2'F-ANA at 5 6 7 9 11 14 | 86
2'F-ANA at 2 4 5 7 10 12 13 | 47.3
2'F-ANA at 1 3 5 7 9 11 12 14 | 49
2'F-ANA at 5 7 9 10 11 14 15 | 75.8
2'F-ANA at 2 3 4 5 6 8 9 10 12 13 14 | 51.6
2'F-ANA at 1 4 5 12 13 14 15 | 50.4
2'F-ANA at 1 3 5 6 9 10 11 | 52.5
2'F-ANA at 1 3 5 6 7 8 11 12 13 14 | 46
2'F-ANA at 2 4 6 7 8 10 11 13 | 84.5
2'F-ANA at 2 3 7 9 10 | 446
2'F-ANA at 4 7 8 9 11 13 14 15 | 102
2'F-ANA at 1 2 3 4 5 8 10 14 15 | 55
2'F-ANA at 1 2 3 6 8 9 11 12 13 14 | 75.5
2'F-ANA at 5 9 13 15 | 49.7
2'F-ANA at 2 5 8 9 10 14 | 172

Sample 2
Target: Hepatocyte nuclear factor 3-alpha (Foxa1, Mus musculus, UniProt P35582, residues 1-468, full length assumed)
Method: EMSA with sequencing
Form: double-stranded DNA, one strand shown
Medium: in vitro
Concentration: 10 and 20 nM
Notes: whole designed probe, mean of two concentrations, ends assumed
Baseline: negative control set to 0
Direction: higher = stronger binding
Construct (chain): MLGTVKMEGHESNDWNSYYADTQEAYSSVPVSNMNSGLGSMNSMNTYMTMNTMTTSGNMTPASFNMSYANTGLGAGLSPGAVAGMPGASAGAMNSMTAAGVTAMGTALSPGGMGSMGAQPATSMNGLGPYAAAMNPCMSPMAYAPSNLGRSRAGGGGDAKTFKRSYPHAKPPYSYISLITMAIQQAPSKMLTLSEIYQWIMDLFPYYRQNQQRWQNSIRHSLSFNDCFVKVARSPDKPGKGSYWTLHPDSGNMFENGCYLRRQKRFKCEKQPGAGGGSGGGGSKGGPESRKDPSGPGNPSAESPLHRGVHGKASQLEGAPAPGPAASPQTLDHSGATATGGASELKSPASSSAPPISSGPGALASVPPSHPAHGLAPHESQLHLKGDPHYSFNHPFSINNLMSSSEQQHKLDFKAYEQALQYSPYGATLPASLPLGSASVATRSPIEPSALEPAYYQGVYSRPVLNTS
Oligonucleotide | normalised bound fraction [ratio]
GTGAGCGGTGCCCATTGATGGGGAACCCCCTCTTTCAGGTTGGGCCCTATAACTTCACCATTTGCAGCTTAGAGGATTTTATTGTCACCCTTGGCTTCCATTAGAGTAAATCATTCTTTGTTTACATTGTTACAATATGTACAGTCTTTATGTAAAATCATGTTACAGTAGCATGATTTTTTAAAGAAAATTGTTTATTCTTTTAAAAACCTTTTAAAATTTCACTGGGATCGTGGGGAC | 0.485
GTGAGCGGTGCCCATTGATGGGGAACCAATGGGGTAGGTCAGCCCCAGTGAACTCTCAAATGACCACTGAAGGAGGAAGTGAGTGCAGAGTGTGATACCACTCACATCCCAGCCCAGACTGTTTGCTCAGCTGGGAGGAGTGTTGCAATTTTCTTCCTGCACGAGATAACACCCCTTCTCATGGCTTCAGGCATCACCTATCTCCTCTAGGCTGCGCTCTTTCACTGGGATCGTGGGGAC | 0.2
GTGAGCGGTGCCCATTGATGGGGAACTTTAGCTGTTTGAATATAATATGTTTACGTTTACTCCTCTTCTTCCTCCTGCCTCCCTTTCTCTTCCTTCTTTCTCTTATTTTTCTTCTATCCAGATTGCTCTTCTTAGGTTAATGAATGTAGTTTGGTGTCATTATTTTTAAAAACTCTGAGCAACCATCCTTACAAATACTGTTTCTGCCCTGTTCTCTCCTTTCACTGGGATCGTGGGGAC | 0.0653

Sample 3
Target: CCND1, cyclin fold, Cln2 fusion (human)
Method: yeast growth competition, sequencing
Medium: yeast
Notes: strong parent motif
Baseline: not given
Direction: higher = stronger binding
Parent: RBL1 docking peptide (human); GSAKRRLFGEDPP
Variant | normalised enrichment score
GSAKRRLFGERPP [D11R] | 0.154
DSAKRRLFGEDPP [G1D] | 1.3
GSAKRRLFGEDPH [P13H] | 2.12
GSAFRRLFGEDPP [K4F] | 0.727
GSAKRRLFGEDPW [P13W] | 1.76
GYAKRRLFGEDPP [S2Y] | 0.754
GSAKRRLFGEYPP [D11Y] | 1.59
GSAKRRFFGEDPP [L7F] | 0.11
SSAKRRLFGEDPP [G1S] | 2.55
GSAKRRLFGEMPP [D11M] | 0.494
GSDKRRLFGEDPP [A3D] | 0.229
GSAKRRLFGSDPP [E10S] | 1.27
GSAKRRLFCEDPP [G9C] | 3.5
GSLKRRLFGEDPP [A3L] | 0.0925
GHAKRRLFGEDPP [S2H] | 1.44
VSAKRRLFGEDPP [G1V] | 1.89

Sample 4
Target: RNA binding protein fox-1 homolog 2, RRM domain, GST-SBP tag (RBFOX2, Homo sapiens, UniProt O43251-10, residues 100-194)
Method: RNA Bind-n-Seq
Form: RNA
Medium: in vitro
Concentration: 365 nM
Notes: natural RNA segment, single round, ends assumed
Baseline: no-protein control
Direction: higher = stronger binding
Target sequence (chain): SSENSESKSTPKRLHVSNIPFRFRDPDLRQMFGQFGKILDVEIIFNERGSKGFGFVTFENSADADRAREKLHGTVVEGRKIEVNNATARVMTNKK
Oligonucleotide | RBNS enrichment (R)
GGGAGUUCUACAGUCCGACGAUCACAAUGCUUUAUUGAAAAGCUUCAAAGUUCAUUAAGCUGAUGCAGUGCUUAGAGAGAGCAAUGUCCAAUCUGUGGCUUGGGAGGUGUCUGCAAGUGACAUUCCUGCGAGCUGGAAUUCUCGGGUGCCAA | 0.699
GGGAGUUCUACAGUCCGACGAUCAGGAAAAAAAGUUCUAAGCUUCUUAUGUGGUCCACAAGGAAUCCAUAUUUGAGAAACAUGAUUAGGUGAAUAAAGUAUUCUAGCAAAAGCUCUAAUCUGUAGAUCAAAAUUGGAAUUCUCGGGUGCCAA | 0.538
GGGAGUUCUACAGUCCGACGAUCUCAAAGGACAAGUCGGACUUGUGAGUCCUAGGUGACCACACUGCUUCCCUUUCUCAGUUCCUGACCUUCCUCUGAGCCCUUGAGACACUUUGUAAUGCUCUUUUGUAACUUGGAAUUCUCGGGUGCCAA | 0.445
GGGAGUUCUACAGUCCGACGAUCAUUUAUUUUGAUCUUUAAUUUCUCUCAGCAAUGUUGUAUAAUAUCAGAAUAUGUCUUGUACUUCUAUGGUUAAAAUUAGUACUGCUUUCUCUCGUGAAUGGAGCUGUUUUUGGAAUUCUCGGGUGCCAA | 0.656
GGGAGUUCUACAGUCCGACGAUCUACUUUCCCAAGUUCCUCACGAGGGUUGCAUAUGCUUUAGAGGGUCCACAAUGCUUUUGUUGUCUUGUCCUGCUUCUCUAGUCCAGGGGAGACCAAAAGCUCAUACUCCUUGGAAUUCUCGGGUGCCAA | 0.531
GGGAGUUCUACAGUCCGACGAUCCCCUCUGCAGCCCCUGGCUGCCCUGGACUGUGCAGAGAUGCCUGACUCCAGGGAAACCUGAAAGCAAGAAGUUAAUGGACUGUUUAUUGUAACUUGAUCCUCCCGAGCUGUGGAAUUCUCGGGUGCCAA | 0.263
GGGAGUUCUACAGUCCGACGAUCAUAACAAAACACUGCUUCAAGAUUUACUUUUAAAUCUAAUUUAAGGGGUGUUUUUACUGUGUUUUUGUCGUUUCCUUUUUACGUGUGCUGUGAUGAAAGAGAAAAAUGCAUGGAAUUCUCGGGUGCCAA | 4.43
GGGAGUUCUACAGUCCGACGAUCGCCCUGUUCCCCACUCCCUCCACUGGCCUCUGCUGUUCCUGUCUUUGCUCACACCCUCACAGCUGCUCUCUGGCAGAGGUUGGCAUAGCCUAGGAGCAGCUGCAAUUGCAUGGAAUUCUCGGGUGCCAA | 2.95
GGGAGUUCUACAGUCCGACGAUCUCUUGGUGGCUUUGAGGACAUUCUGGAAAAUGCCACUGACCAGUGUGAACAAAAGGGAUGUGUUAUGGGGCUGGAGGUGUGAUUAGGUAGGAGGGAAACUGUUGGACCGAUGGAAUUCUCGGGUGCCAA | 1.38
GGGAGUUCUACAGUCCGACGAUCGAAAGGGAACCUCAGCUCGUUAGGCAGGAAGAGUUGAUAUUUAAUAAAGAGAGAACAAUUGAACCGAAGCCCAGCAGUCCUCUUGUCAGCUCUUUCCAUCUUCAGGAGUGUGGAAUUCUCGGGUGCCAA | 0.318
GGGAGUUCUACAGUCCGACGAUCGUGGGCGGGCAGGGCAGGCCAAGACCCUGCCGCCCAGUGGACCCCGGCCUACCCACCCCACUCUACAGCCCCUCCAACCUCAAGGCACUUCGGGGACUCAGACGGGGGAGUGGAAUUCUCGGGUGCCAA | 0.39
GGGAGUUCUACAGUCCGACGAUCUGUCCCAGGGAAAGUCUGAGAAGGCCUGAGCCGUGACCUCUUCUGCUUACUGUAACUGCGGCCGGUUUAGUGACCCCAUGACUUACAGCCGGUUCUUACCUCUUAGGUGAUGGAAUUCUCGGGUGCCAA | 0.419

Sample 5
Target: Sal-like protein 4, full length isoform B (SALL4, Homo sapiens, UniProt Q9UJQ4-2, residues 1-616)
Method: universal PBM
Form: double-stranded DNA, one strand shown
Medium: in vitro
Concentration: not given
Notes: 8-mer, flanks averaged, mean of replicates
Direction: higher = stronger binding
Construct (chain): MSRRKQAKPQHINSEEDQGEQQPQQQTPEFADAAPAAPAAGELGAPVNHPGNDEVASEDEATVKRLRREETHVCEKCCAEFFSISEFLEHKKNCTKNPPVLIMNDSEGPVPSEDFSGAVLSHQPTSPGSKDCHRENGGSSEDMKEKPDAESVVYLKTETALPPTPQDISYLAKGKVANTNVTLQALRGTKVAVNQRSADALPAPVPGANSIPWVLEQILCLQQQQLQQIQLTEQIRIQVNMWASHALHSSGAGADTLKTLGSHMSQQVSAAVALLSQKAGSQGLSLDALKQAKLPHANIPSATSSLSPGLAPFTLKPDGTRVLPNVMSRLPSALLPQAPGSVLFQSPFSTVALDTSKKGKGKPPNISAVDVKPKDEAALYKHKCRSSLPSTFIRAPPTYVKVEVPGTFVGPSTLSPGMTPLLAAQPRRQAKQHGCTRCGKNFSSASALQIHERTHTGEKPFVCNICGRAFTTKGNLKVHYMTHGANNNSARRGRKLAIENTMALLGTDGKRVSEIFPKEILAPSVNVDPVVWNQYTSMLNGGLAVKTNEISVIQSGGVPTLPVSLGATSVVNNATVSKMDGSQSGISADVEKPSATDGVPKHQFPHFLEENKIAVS
Oligonucleotide | E-score
AACAGAAG | 0.112
CAAATCAA | 0.223
ATATTGTC | 0.328
ATTATAAG | 0.338
TCTTCGCA | 0.0195
CTAGTCGA | 0.0439
CAAACGGA | -0.161
GCCCCACA | -0.31
CACCGTGA | -0.171
AATGGAAG | 0.052
AGTTGACC | -0.205
GGCGCACC | -0.387
AAGGCTGA | -0.0404

Sample 6
Target: Transcription factor Sp1 (SP1, Homo sapiens, UniProt P08047, residues 1-785, full length assumed)
Chain of UniProt P08047 (whole entry, looked up): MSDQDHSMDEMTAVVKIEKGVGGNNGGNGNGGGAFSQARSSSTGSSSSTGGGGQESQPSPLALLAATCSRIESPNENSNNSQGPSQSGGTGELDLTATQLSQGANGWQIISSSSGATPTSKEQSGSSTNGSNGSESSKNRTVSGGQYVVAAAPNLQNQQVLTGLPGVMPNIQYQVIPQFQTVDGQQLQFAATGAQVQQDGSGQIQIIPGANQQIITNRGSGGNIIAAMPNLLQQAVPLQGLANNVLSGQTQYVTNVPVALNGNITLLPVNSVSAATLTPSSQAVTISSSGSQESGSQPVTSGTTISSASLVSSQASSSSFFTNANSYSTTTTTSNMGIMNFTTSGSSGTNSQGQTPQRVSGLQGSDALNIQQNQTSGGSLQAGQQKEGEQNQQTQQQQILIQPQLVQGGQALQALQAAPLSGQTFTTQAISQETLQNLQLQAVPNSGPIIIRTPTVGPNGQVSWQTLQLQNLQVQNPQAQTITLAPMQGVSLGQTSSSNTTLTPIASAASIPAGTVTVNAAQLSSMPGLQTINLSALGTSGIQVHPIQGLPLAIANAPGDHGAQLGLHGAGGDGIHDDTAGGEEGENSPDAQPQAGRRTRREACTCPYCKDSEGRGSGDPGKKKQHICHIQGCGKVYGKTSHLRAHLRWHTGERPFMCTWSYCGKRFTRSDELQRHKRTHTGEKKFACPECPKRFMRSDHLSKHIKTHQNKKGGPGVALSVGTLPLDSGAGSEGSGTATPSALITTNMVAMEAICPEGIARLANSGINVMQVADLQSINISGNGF
Method: protein-binding microarray
Form: double-stranded DNA, one strand shown
Medium: in vitro
Concentration: not given
Notes: k-mer, scored over probes, only values ≥0.25
Direction: higher = stronger binding
Oligonucleotide | E-score
ATTGTACC | 0.26
ACAATATG | 0.267
CATTTACC | 0.276
AACCCCGC | 0.309
CCCTCCCC | 0.469
CCCCTGTA | 0.269
CCCGAACA | 0.257
AGTACTAC | 0.253
GTTATACA | 0.26
CCCTCCCG | 0.401
ATGTACGA | 0.266
CTACCCCA | 0.26
GGTGGGGA | 0.471

Sample 7
Sequence: B1 (RNF24 RING domain)
Method: yeast two-hybrid
Medium: yeast
Notes: mostly zero background
Baseline: not given
Direction: higher = stronger interaction
B1: RNF24 RING domain (UniProt Q9Y225); chain KVKELNLHELCAVCLEDFKPRDELGICPCKHAFHRKCLIKWLEVRKVCPLCNMPVLQLAQLH
target | lacZ reporter activity
UBE2C UBC core domain (UniProt O00762) | 0
UBE2B UBC core domain (UniProt P63146) | 0
UBE2G1 UBC core domain (UniProt P62253) | 0
UBE2J2 UBC core domain (UniProt Q8N2K1) | 0
